Measured values pooled from the literature.
Every numbered part comes from another study and shows a few of its results, in no order. Substitutions count along the parent as printed.

Series 1
Target: CREB3L1, bZIP domain (human)
Technique: DHFR protein complementation
Sample: yeast
Notes: single substitutions, most at no-binding floor
Relative to: wild-type JUN-FOS pair
Reading: higher = stronger binding
Starting sequence: JUN, bZIP domain (human); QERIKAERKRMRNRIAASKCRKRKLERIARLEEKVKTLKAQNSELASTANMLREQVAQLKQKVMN; partner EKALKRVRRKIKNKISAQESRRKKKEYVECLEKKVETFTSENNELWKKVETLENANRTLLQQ
| Variant | binding fitness [natural log] |
| --- | --- |
| N42Q | -1.4 |
| A57N | -1.46 |
| K34A | -1.42 |
| R30H | -1.5 |
| A46L | -1.37 |
| T48R | -0.939 |
| A57G | -1.33 |
| R30P | -1.49 |

Series 2
Target: TAR DNA-binding protein 43, full length, His tag (TARDBP, Homo sapiens, UniProt Q13148, residues 1-414)
Technique: RNA Bind-n-Seq
Form: RNA
Sample: in vitro
Tested at: 20 nM
Notes: 6-mer, flanks averaged, single round
Together with: 150 mM KCl
Relative to: input library
Reading: higher = stronger binding
| Strand | 6-mer enrichment (R) |
| --- | --- |
| AUGUGC | 0.908 |
| AAUACC | 0.613 |
| ACGUGG | 1.63 |
| AUUCAC | 0.563 |
| CAGACG | 0.956 |
| CGUGUG | 1.59 |
| ACGAGC | 0.852 |
| GGGGGG | 16.3 |

Series 3
Target: PABPC1L2, full length, GST fusion (mouse, UniProt A0ABA7IW68)
Technique: RNAcompete
Form: RNA
Sample: in vitro
Tested at: 20 nM
Notes: 7-mer, probes averaged, single round
Relative to: mean of 7-mers
Reading: higher = stronger binding
Target sequence (chain): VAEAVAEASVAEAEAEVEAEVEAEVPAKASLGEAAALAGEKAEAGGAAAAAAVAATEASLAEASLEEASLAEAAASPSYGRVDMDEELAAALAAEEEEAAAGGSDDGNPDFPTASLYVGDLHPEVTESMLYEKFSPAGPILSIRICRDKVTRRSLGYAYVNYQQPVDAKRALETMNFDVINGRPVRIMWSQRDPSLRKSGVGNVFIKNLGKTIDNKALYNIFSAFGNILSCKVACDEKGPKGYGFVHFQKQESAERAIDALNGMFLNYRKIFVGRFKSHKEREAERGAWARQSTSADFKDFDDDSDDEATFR
| Strand | 7-mer Z-score |
| --- | --- |
| CAGGCUA | 0.0895 |
| GUGAGUC | -0.4 |
| CGUGGGG | 0.307 |
| CCACCAA | -0.0246 |
| CACUCGC | -0.262 |
| UUGGAGA | 0.0297 |
| CGACCUC | -0.0645 |
| GACCCAG | -0.119 |

Single results of other studies
Starting sequence: PafA, mature enzyme, eGFP fusion (Elizabethkingia meningoseptica, UniProt Q9KJX5); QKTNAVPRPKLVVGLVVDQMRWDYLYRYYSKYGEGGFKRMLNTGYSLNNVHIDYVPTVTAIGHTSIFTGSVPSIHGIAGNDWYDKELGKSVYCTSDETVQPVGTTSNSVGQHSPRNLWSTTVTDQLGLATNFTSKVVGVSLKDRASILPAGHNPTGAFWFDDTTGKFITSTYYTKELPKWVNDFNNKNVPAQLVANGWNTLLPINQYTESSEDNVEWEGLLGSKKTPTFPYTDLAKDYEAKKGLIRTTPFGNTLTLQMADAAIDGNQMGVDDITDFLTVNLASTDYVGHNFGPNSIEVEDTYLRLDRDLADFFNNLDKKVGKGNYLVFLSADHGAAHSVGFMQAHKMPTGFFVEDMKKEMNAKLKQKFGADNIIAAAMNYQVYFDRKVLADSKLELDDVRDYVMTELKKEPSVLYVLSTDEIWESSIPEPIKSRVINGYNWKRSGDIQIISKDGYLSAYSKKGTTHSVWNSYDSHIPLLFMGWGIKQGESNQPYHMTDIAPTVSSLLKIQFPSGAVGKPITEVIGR
| Variant | target | assay | test system | setting | how to read | measurement | value |
| --- | --- | --- | --- | --- | --- | --- | --- |
| L414V | tungstate, free oxyanion | microfluidic competitive inhibition | in vitro, cell-free expressed | not given, derived from inhibition constants, unchanged parent 2230 nM | lower = stronger binding | oxyanion analog dissociation constant | 1690 nM |

Excerpt of the above (series 3):
| Strand | 7-mer Z-score |
| --- | --- |
| GACCCAG | -0.119 |
| CGUGGGG | 0.307 |
